Results of several laboratories.
Each line is one published result; not all experiments were run side by side. ± marks the error that the study gave.
Glycine receptor (alpha-1/beta): Glycine receptor (alpha-1/beta) (Homo sapiens, UniProt P23415+P48167)
Chain of UniProt P23415 (whole entry, looked up): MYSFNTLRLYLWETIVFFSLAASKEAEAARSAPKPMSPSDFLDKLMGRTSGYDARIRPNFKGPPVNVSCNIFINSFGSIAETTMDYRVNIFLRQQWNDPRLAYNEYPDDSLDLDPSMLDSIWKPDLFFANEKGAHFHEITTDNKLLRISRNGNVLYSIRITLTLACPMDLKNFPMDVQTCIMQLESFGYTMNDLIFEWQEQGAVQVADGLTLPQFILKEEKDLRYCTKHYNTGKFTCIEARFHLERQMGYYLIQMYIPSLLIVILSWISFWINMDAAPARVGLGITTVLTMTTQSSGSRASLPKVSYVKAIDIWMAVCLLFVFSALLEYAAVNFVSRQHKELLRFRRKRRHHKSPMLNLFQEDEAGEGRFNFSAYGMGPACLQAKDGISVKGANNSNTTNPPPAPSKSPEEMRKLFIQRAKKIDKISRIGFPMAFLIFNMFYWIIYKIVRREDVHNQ
Chain of UniProt P48167 (whole entry, looked up): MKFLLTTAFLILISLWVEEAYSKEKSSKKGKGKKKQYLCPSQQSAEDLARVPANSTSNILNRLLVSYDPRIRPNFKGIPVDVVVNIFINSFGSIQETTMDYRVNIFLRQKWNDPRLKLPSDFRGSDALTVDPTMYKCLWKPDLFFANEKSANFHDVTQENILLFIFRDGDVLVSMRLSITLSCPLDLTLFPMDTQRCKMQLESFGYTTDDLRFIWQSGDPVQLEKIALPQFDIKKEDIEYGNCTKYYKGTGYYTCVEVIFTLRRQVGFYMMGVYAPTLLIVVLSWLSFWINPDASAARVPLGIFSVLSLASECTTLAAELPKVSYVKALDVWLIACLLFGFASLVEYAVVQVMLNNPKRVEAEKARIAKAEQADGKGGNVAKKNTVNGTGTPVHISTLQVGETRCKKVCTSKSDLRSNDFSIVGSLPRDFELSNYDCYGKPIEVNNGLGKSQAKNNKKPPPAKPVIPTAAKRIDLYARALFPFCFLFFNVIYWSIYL
Chain of UniProt Q8X1D8 (whole entry, looked up): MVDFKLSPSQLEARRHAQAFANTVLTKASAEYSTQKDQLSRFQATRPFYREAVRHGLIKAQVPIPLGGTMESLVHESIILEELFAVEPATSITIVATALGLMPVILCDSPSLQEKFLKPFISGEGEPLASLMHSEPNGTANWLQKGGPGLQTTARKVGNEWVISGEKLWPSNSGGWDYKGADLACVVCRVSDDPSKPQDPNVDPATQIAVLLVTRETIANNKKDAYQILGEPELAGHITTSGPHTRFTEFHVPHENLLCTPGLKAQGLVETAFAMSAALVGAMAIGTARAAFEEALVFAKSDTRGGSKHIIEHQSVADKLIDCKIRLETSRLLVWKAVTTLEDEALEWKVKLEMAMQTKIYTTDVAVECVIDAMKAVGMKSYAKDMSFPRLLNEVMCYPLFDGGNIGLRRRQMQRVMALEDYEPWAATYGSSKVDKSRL
Chain of UniProt P06931 (whole entry, looked up): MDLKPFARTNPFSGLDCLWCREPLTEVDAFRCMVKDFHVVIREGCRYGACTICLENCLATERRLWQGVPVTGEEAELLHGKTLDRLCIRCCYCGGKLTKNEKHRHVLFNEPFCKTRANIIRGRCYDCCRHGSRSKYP
Chain of UniProt Q66104 (whole entry, looked up): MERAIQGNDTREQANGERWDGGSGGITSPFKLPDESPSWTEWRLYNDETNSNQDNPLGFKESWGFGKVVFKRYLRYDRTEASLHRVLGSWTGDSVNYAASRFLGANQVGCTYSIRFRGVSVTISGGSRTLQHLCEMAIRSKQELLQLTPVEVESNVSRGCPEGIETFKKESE

Molecule | target or system | test | test system | conditions | endpoint | result
DDLDALLADKE | Protein E6 (E6, Bovine papillomavirus type 1, UniProt P06931) | binding, SPR | peptide | pH 6.8, 25 °C, GST-peptide captured, with: MBP-E6 analyte | koff | 0.0017 s⁻¹
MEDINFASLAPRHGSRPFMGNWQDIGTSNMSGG | adenovirus type 5 hexon trimer | native mass spectrometry | peptide | 1 µM | half-maximal binding pH | 6.5 to 7
enzyme (Agrobacterium tumefaciens, UniProt A0A2I4PGZ0) | O=C(O)c1ccccc1O[C@@H]1O[C@H](CO)[C@@H](O)[C@H](O)[C@H]1O | steady-state kinetics |  | pH 7, 37 °C | Km | 470 µM
NQLPLHA | Glycine receptor (alpha-1/beta) | ion current, positive modulator, two-electrode voltage clamp | peptide, Xenopus oocytes | 30 µM, -70 mV holding, with: glycine EC5-10 | potentiation | < 20%
CGUACGCGGAAUACUUCGAAA / UCGAAGTAUUCCGCGTACGUG (dsRNA; 5' phosphate, 3' overhangs, fluorescein-dT) | p19 1-172 (Carnation Italian ringspot virus, UniProt Q66104) | EMSA |  |  | Kd | 0.17 ± 0.03 nM
MNPTYTM | Glycine receptor (alpha-1/beta) | ion current, positive modulator, two-electrode voltage clamp | peptide, Xenopus oocytes | 30 µM, -70 mV holding, with: glycine EC5-10 | potentiation | < 20%
fin fragment (Bacillus subtilis) (sequence not shown) | rpoC fragment (Bacillus subtilis) | NMR titration |  |  | binding | binds
nitroalkane oxidase (Fusarium oxysporum, UniProt Q8X1D8) | CCCCCCCC[N+](=O)[O-] | steady-state kinetics |  | pH 8, 30 °C, with: O2 | Km | 30 µM

For quick reference, copied from above:
Molecule | target or system | test | test system | conditions | endpoint | result
NQLPLHA | Glycine receptor (alpha-1/beta) | ion current, positive modulator, two-electrode voltage clamp | peptide, Xenopus oocytes | 30 µM, -70 mV holding, with: glycine EC5-10 | potentiation | < 20%
